Measurements collected from several papers.
Lines come from different studies, so protocols differ. Numbers after ± are the reported error.
GLP1R: Glucagon-like peptide 1 receptor (GLP1R, Homo sapiens, UniProt P43220)
Sequence of UniProt P43220 (whole entry, looked up): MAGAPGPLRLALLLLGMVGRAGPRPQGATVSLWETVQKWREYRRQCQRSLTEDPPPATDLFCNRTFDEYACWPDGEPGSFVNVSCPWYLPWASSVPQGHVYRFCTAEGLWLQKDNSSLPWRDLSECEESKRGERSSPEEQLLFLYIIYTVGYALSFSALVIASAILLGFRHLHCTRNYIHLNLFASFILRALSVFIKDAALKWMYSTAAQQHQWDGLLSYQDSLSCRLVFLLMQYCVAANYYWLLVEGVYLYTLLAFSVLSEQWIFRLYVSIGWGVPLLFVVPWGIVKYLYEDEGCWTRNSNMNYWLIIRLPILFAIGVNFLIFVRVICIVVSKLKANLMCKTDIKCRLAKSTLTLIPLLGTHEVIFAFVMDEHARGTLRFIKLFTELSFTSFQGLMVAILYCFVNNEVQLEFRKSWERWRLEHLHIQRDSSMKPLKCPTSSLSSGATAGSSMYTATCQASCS
CNR1: Cannabinoid receptor 1 (CNR1, Homo sapiens, UniProt P21554)
Sequence of UniProt P21554 (whole entry, looked up): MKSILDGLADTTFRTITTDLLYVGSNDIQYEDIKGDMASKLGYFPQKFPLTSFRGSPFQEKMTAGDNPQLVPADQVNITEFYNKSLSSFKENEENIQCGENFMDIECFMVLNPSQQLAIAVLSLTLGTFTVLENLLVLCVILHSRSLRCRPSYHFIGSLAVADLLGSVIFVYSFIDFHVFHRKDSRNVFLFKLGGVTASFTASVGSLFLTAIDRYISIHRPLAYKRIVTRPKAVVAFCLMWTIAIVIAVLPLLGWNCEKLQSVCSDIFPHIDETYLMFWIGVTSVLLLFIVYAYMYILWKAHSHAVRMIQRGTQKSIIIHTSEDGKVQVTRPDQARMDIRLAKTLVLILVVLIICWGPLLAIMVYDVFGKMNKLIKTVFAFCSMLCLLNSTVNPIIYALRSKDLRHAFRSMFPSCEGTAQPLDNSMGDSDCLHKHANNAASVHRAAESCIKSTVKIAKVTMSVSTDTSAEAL
Sequence of UniProt P02708 (whole entry, looked up): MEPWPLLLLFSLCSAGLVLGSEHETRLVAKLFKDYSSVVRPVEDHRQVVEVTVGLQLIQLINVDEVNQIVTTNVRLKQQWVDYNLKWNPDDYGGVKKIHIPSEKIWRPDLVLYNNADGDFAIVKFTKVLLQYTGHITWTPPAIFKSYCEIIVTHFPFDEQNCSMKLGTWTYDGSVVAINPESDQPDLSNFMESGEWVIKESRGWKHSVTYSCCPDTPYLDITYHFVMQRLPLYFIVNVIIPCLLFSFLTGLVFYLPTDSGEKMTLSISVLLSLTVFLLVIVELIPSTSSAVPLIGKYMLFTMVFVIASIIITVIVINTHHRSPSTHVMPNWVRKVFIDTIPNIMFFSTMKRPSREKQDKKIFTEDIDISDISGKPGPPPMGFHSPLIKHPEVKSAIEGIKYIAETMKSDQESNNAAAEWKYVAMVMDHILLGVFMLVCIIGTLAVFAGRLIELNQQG
Sequence of UniProt Q9HB89 (whole entry, looked up): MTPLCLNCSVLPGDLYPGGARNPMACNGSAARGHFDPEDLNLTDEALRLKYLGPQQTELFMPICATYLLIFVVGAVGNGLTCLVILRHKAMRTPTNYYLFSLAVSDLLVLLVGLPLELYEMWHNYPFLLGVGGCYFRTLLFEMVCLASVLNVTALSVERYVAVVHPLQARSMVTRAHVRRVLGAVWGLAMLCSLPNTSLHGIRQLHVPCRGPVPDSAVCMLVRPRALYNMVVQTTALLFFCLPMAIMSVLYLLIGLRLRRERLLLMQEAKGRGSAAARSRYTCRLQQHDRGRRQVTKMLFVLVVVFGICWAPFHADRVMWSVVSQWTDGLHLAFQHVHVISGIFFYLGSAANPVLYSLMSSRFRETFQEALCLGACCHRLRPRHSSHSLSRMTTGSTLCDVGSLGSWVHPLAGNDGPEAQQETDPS
Sequence of UniProt Q704Y3 (whole entry, unmodified, looked up): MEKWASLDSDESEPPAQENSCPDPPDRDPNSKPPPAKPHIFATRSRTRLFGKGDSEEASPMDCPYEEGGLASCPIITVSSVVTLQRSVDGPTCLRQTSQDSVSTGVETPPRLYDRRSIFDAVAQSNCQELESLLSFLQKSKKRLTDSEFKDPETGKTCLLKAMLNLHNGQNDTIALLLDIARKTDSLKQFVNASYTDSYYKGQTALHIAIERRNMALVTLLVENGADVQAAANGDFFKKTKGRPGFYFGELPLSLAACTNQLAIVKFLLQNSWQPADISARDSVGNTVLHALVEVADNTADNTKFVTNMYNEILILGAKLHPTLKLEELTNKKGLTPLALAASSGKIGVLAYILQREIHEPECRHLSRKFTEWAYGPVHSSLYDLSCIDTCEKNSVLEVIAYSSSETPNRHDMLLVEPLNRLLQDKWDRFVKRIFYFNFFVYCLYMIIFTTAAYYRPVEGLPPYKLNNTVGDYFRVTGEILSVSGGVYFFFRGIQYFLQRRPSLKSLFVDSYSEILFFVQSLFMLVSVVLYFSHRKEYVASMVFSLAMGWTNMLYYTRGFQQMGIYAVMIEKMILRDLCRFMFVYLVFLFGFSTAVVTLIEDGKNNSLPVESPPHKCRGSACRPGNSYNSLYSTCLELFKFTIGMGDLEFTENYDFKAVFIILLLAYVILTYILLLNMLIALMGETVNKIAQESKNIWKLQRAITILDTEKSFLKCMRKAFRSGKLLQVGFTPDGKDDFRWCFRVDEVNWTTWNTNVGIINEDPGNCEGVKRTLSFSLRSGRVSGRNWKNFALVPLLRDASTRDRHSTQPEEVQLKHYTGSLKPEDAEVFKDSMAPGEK
Sequence of UniProt Q3UFF7 (whole entry, looked up): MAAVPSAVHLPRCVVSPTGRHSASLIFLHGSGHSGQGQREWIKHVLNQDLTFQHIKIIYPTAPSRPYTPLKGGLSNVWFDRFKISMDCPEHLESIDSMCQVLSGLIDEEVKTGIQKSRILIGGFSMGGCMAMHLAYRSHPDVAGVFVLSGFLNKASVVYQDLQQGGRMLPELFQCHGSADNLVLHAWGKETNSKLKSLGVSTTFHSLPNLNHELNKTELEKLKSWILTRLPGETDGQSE
Sequence of UniProt Q07001 (whole entry, looked up): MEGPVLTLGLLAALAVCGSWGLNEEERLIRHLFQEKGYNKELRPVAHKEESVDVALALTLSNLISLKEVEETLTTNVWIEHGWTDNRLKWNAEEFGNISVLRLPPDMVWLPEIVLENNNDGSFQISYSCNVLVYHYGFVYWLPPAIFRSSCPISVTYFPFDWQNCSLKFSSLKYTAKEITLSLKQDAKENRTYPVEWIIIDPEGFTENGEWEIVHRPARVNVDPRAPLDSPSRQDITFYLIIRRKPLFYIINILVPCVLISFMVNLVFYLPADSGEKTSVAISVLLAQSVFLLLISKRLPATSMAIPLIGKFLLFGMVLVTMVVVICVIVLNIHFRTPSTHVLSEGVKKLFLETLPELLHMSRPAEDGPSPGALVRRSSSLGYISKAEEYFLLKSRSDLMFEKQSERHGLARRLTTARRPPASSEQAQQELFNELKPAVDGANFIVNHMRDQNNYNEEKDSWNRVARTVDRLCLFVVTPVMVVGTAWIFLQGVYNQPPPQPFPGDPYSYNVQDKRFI
Sequence of UniProt Q8TDU6 (whole entry, looked up): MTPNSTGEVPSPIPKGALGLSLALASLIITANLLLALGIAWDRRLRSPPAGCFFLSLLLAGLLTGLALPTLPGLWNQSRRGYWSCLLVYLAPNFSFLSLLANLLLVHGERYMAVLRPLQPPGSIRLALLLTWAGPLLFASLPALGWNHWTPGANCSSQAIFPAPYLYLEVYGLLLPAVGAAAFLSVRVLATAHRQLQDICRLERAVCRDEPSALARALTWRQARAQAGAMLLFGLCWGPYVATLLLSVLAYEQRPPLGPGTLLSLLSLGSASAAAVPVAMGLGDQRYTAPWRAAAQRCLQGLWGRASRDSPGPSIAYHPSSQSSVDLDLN

O=C(O)CCn1c(=O)oc2cc(Cl)c(Cl)cc21 — EC50 (CHRNA1/Acetylcholine receptor subunit delta (Homo sapiens, UniProt P02708+Q07001); opener; median): > 50100 nM
CC[C@H](C)[C@H](NC(=O)[C@H](Cc1ccccc1)NC(=O)[C@H](CCC(=O)O)NC(=O)[C@H](CCCCN)NC(=O)[C@H](C)NC(=O)[C@H](C)NC(=O)[C@H](CCC(N)=O)NC(=O)CNC(=O)[C@H](CCC(=O)O)NC(=O)[C@H](CC(C)C)NC(=O)[C@H](Cc1ccc(O)cc1)NC(=O)[C@H](CO)NC(=O)[C@H](CO)NC(=O)[C@@H](NC(=O)[C@H](CC(=O)O)NC(=O)[C@H](CO)NC(=O)[C@@H](NC(=O)[C@H](Cc1ccccc1)NC(=O)[C@@H](NC(=O)CNC(=O)[C@H](CCC(=O)O)NC(=O)[C@H](C)NC(=O)[C@H](Cc1c[nH]cn1)NC(C)=O)[C@@H](C)O)[C@@H](C)O)C(C)C)C(=O)N[C@@H](C)C(=O)N[C@@H](Cc1c[nH]c2ccccc12)C(=O)N[C@@H](CC(C)C)C(=O)N[C@H](C(=O)N[C@@H](CCCCN)CN(CC(=O)N[C@@H](CCCNC(=N)N)C(=O)N[C@@H](CCCCN)CN(CC(N)=O)S(C)(=O)=O)S(C)(=O)=O)C(C)C — EC50 (GLP1R; reporter gene, agonist, luciferase): 1.49 nM
CCCCCCCCCCCCCCCCCC(=O)NC[C@H]1CC[C@H](C(=O)N[C@@H](CCC(=O)NCCCOCCOCCOCCCNC(=O)COCC(=O)N[C@@H](Cc2ccc(O)cc2)C(=O)NC(C)(Cc2ccccc2)C(=O)N[C@@H](CC(C)C)C(=O)N[C@@H](CCCC)C(=O)N[C@@H](CCCNC(=N)N)C(=O)N2CCC[C@H]2C(=O)N[C@@H](CCCNC(=N)NC)C(=O)N[C@@H](CC(N)=O)C(N)=O)C(=O)O)CC1 (stereo partly shown) — EC50 (NMUR1 (Homo sapiens, UniProt Q9HB89); inositol phosphate, agonist, TR-FRET): > 10000 nM
CC(CCC(=O)NCCS(=O)(=O)O)C1CCC2C3C(O)CC4CC(OS(=O)(=O)O)CCC4(C)C3CC(O)C12C (stereo not shown) — EC50 (GPBAR1 (Homo sapiens, UniProt Q8TDU6); agonist): > 200000 nM
CCCCCn1ccc(C(=O)NC(C)(C)c2ccccc2)n1 — EC50 (CNR1; calcium signal, agonist): 126 nM
CC[C@H](C)[C@@H]1NC(=O)[C@H](CC(N)=O)NC(=O)[C@@H]2CCCN2C(=O)[C@@H](NC(=O)[C@H](CC(N)=O)NC(=O)CNCCC(N)=O)COC(=O)[C@H](CCSC)NC(=O)[C@H](Cc2c[nH]c3ccccc23)NC(=O)[C@H](CCC(N)=O)NC(=O)CNC(=O)[C@H](Cc2ccccc2)NC1=O — EC50 (Fsr quorum sensing protein (Enterococcus faecalis, UniProt A0ACD6TCR9); Fsr quorum sensing, agonist, β-galactosidase reporter): 0.641 nM
CC(=O)N[C@@H](Cc1c[nH]cn1)C(=O)N[C@@H](C)C(=O)N[C@@H](CCC(=O)O)C(=O)NCC(=O)N[C@H](C(=O)N[C@@H](Cc1ccccc1)C(=O)N[C@H](C(=O)N[C@@H](CO)C(=O)N[C@@H](CC(=O)O)C(=O)N[C@H](C(=O)N[C@@H](CO)C(=O)N[C@@H](CO)C(=O)N[C@@H](Cc1ccc(O)cc1)C(=O)N[C@@H](CC(C)C)C(=O)N[C@@H](CCC(=O)O)C(=O)NCC(=O)N[C@@H](CCC(N)=O)C(=O)N[C@@H](C)C(=O)N[C@@H](C)C(=O)N[C@@H](CCCCN)C(=O)N[C@@H](CCC(=O)O)C(=O)N[C@@H](Cc1ccccc1)CN(CC(=O)N[C@@H](C)C(=O)N[C@@H](Cc1c[nH]c2ccccc12)CN(CC(=O)N[C@H](C(=O)N[C@@H](CCCCN)CN(CC(=O)N[C@@H](CCCNC(=N)N)C(=O)N[C@@H](CCCCN)CN(CC(N)=O)S(C)(=O)=O)S(C)(=O)=O)C(C)C)S(=O)(=O)CC(C)C)S(=O)(=O)CC(C)C)C(C)C)[C@@H](C)O)[C@@H](C)O — EC50 (GLP1R; reporter gene, agonist, luciferase): > 1000 nM
CCCCC/C=C\C/C=C\C/C=C\C/C=C\CCCC(=O)NCCc1ccc(O)c(O)c1 — EC50 (Trpv1 (Mus musculus, UniProt Q704Y3, T551S); ion current, agonist, whole-cell patch clamp; 24 °C, T551S, +80 mV): 140 ± 70 nM
O=C1NC2(CC2)COc2ncc(F)cc2[C@H]2COCCN2c2ccn3ncc1c3n2 — organ weight (Sprague-Dawley rat, female, thymus; oral, 20 mg/kg/day, 4 weeks): 0.517 ± 0.129 g
CCCCCn1ccc(C(=O)NC(C)(C)c2ccccc2C)n1 — EC50 (CNR1; calcium signal, agonist): 423 nM
Cc1nc2ccc(S(=O)(=O)n3nc(CCCc4ccc(Cl)cc4)nc3N)cc2s1 — EC50 (Lysophospholipase-like protein 1 (Mus musculus, UniProt Q3UFF7); enzyme activity, activator, gel-based ABPP): > 20000 nM
CC[C@H](C)[C@H](NC(=O)[C@H](Cc1ccccc1)NC(=O)[C@H](CCC(=O)O)NC(=O)[C@H](CCCCN)NC(=O)[C@H](C)NC(=O)[C@H](C)NC(=O)[C@H](CCC(N)=O)NC(=O)CNC(=O)[C@H](CCC(=O)O)NC(=O)[C@H](CC(C)C)NC(=O)[C@H](Cc1ccc(O)cc1)NC(=O)[C@H]1CNC[C@@H]1NC(=O)[C@H](CO)NC(=O)C(C)(C)NC(=O)[C@H](CC(=O)O)NC(=O)[C@H](CO)NC(=O)[C@@H](NC(=O)[C@H](Cc1ccccc1)NC(=O)[C@@H](NC(=O)CNC(=O)[C@H](CCC(=O)O)NC(=O)[C@H](C)NC(=O)[C@@H](N)Cc1c[nH]cn1)[C@@H](C)O)[C@@H](C)O)C(=O)N[C@@H](C)C(=O)N[C@@H](Cc1c[nH]c2ccccc12)C(=O)N[C@@H](CC(C)C)C(=O)N[C@H](C(=O)N[C@@H](CCCCN)C(=O)NCC(=O)N[C@@H](CCCNC(=N)N)C(N)=O)C(C)C — EC50 (GLP1R; cAMP, agonist, luciferase): 0.0631 nM
CCCCCn1ccc(C(=O)NC(C)(C)c2ccc(N)cc2)n1 — EC50 (CNR1; calcium signal, agonist): 118 nM
